Results of several laboratories.
Every numbered part comes from another study and shows a few of its results, in no order. Substitutions count along the parent as printed.

Set 1
Target: CCNF, cyclin fold, Cln2 fusion (human)
Method: yeast growth competition, sequencing
Sample: yeast
Setting: strong parent motif
Relative to: not given
Direction: higher = stronger binding
Parent: RB1 docking peptide (human); PKPLKKLRFDIEG
Substitution | normalised enrichment score
K2S | 0.724
I11T | -0.215
K6N | 0.378
L4V | 3.83
I11C | 0.714
R8W | 1.37
P3M | 1.08
F9W | 0.944
F9M | 0.724
I11V | 1.46
E12L | 1.88
R8F | 2.39
L4W | 1.89
P1E | 0.73

Set 2
Target: RNA binding protein fox-1 homolog 2, RRM domain, GST-SBP tag (RBFOX2, Homo sapiens, UniProt O43251-10, residues 100-194)
Method: RNA Bind-n-Seq
Form: RNA
Sample: in vitro
Tested at: 365 nM
Setting: natural RNA segment, single round, ends assumed
Relative to: no-protein control
Direction: higher = stronger binding
Construct (chain): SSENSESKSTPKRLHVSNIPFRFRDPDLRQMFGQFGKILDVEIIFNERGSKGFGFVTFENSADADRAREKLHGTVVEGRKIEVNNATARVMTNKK
Strand | RBNS enrichment (R)
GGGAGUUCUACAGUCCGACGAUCAAGCAUUGAGGAAACUGAAAAAUCUUUGUAAGACCCUUAAUGGCUAAAGCCAUUGGCUGUAAUGAGUGUUACUGUGUGAGGCUUUGUGUAUGAGAUCUGUGCUGUAAGGCUGGAAUUCUCGGGUGCCAA | 0.496
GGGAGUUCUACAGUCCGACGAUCAGUGGGCCAACUACAAUCCUCAUCUCCUAAAGUCAUCUACAGAUGGCAGGUGGAAGAAAGUGGUUCUCCAUUCCACAUCCACUGCCAGUGUGCAUGGGGAGGGCAGGGGAUGGAAUUCUCGGGUGCCAA | 4.54
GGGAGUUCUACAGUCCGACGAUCUCAGAGGGAGUGUGGAGGGAGGGACCCGGCCUCUCUGUUGUCAAAUUGAGGCCUCCAUGUGGGAAGUGUGAUUUCUGCUUUUGUGUCCCAUCCCCACCCCACCCCAUUACUGGAAUUCUCGGGUGCCAA | 0.504
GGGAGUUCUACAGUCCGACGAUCCAGUUUGGGUUCACAAAAGGGGGUGCCGUCAUCCCUGGGUGGAGGAGGGAGUGUUGGUUUUUUGUUUUUGUUUUUUUAACAUGUAUGAAACUGACAUCUUCUCAAAUCUUUGGAAUUCUCGGGUGCCAA | 0.279
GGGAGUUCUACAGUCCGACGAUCUGUGUCCUCUCUGACUUGGCCAGCCUGAUGGUCCUUCCUUCUACUCUGUGUAGUCAUUCCUAAGCCCCACAGAGGGAGCGCCAACAUUUCUCACUGUGCUGCUGAGGUUCUGGAAUUCUCGGGUGCCAA | 0.197
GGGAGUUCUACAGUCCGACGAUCAAAGGUUACCCUCCCACCCCCGCUAUUUCUCAUGAUUCGUCAAUAUCUAGGUUAGGUAUUGAAAGAUCUUUCUAAGCAUCUGGUACUAUGAUCAGGACCAUAUCCUGCCCUGGAAUUCUCGGGUGCCAA | 0.417
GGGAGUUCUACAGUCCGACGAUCAGAUCAGUCAGUAUUCUUACUUGUAGUUGAUGAGCACGAGGAGGGCUCCGUGGCUGCCUGCUACUAGCCCUGAGUUCUUAAUGGGCUCUGGAGAGCACCUCCAUUAUCUCUGGAAUUCUCGGGUGCCAA | 3.57
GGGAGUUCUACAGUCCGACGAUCGGUCUUGGAAGGGUGGUCUUUAUACAGGUUUUACUGUAAUGGUAAGGAUCGACUCGAGACAGUAUUAGUAAAUAUAUUUUGUAUGGAUCAAAACAGUGAGCACCGUAUGAUGGAAUUCUCGGGUGCCAA | 0.367
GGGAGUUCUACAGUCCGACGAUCUGAACCUCUGAGGGCCAAAAUAGGACAUUUGGGAACAACUCCUUAACCCAUGAACUAGCUGUAACAUAGUUUGUGGAUCCAUGCACUGAUGCUGUGAAGCCUGCCCCUGUUGGAAUUCUCGGGUGCCAA | 0.861
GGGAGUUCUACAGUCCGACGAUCUCUACAGAAGCUGAAAACAGGCGUUUUAGAUAUUGGUAUAUUGGUAUAUGAUAUGGUAUGAUGCUUAUGGUCUGCUAUGAGCAUUCCUGGGCAUACCACAUAACUAGAUGUGGAAUUCUCGGGUGCCAA | 0.349
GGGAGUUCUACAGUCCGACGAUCUUUCUAUCUGAGAGGUCCUAACCAUUACAGCUAUCACCCCUCGGCUGACAUGGUCUUUCAAGAUUCUUAGUAGGUCUCUCAGAAGCCAGUUCAUCUGGCCUUAACUGAAUUGGAAUUCUCGGGUGCCAA | 0.22
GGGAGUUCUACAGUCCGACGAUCUCAGACUCAUAUGGCAUGUUAAUUAAUGACUUACGAUGGUGUCCUACUCUGGGCAGCUGUAUAGGAUCAUCAUGUGGUUAAAAGAAGAUACUUCCCUCCAAAAAAAAAUCUGGAAUUCUCGGGUGCCAA | 1.15

Set 3
Target: Sal-like protein 4, full length isoform B (SALL4, Homo sapiens, UniProt Q9UJQ4-2, residues 1-616)
Method: universal PBM
Form: double-stranded DNA, one strand shown
Sample: in vitro
Tested at: not given
Setting: 8-mer, flanks averaged, mean of replicates
Direction: higher = stronger binding
Residues (chain): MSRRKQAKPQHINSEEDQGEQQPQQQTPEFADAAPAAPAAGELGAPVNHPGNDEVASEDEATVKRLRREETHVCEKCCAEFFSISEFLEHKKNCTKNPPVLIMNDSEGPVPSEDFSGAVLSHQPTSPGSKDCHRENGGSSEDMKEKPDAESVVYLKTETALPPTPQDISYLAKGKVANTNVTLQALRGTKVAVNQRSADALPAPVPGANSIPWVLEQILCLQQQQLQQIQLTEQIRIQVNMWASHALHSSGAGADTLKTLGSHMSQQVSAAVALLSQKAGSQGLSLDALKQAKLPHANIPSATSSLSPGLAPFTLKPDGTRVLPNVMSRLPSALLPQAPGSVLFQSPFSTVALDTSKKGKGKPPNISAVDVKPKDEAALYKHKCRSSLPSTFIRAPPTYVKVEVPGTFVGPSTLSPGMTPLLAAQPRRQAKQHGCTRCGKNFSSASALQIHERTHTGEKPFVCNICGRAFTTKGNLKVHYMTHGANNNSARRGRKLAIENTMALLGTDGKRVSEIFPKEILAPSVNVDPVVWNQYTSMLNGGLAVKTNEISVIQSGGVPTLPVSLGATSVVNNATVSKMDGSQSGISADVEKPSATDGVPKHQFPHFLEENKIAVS
Strand | E-score
CACGTCTC | -0.093
CAAGCTAC | -0.051
CCCTGGTA | -0.329
ACTATTGA | 0.215
AGGTGGTG | -0.112
CACAGAGC | -0.183
CACGACTG | -0.192
GACACCGA | -0.131
ATTCTGTA | 0.127
CCGTTGCC | -0.271
AACCTCTG | -0.0632
ATGAAGGA | 0.27
TTCACCAA | 0.0853
AATCAGGT | 0.178
AGTTCTTC | -0.078
CGTGTAAA | 0.0508
CCTTAACA | 0.157
CCTGTTCG | -0.204
CGTCACCA | -0.0276
CAGTAGTC | -0.147
GACCGAGC | -0.393
GGAACTCA | -0.0568
ACAATTTG | 0.129
AGCCCTAT | -0.0158
AAAACGCT | 0.144

Set 4
Target: Interferon regulatory factor 5, full length, phosphomimetic (IRF5, Homo sapiens, UniProt Q13568-2, residues 1-514, K96S/S451D/S453D/S456D/S462D)
Method: protein-binding microarray
Form: double-stranded DNA, one strand shown
Sample: in vitro
Tested at: 250 nM
Setting: 60-bp whole probe
Added: salmon DNA 0.4 mg/ml
Relative to: random background probes
Direction: higher = stronger binding
All sequences stand within: GCCTAGCAC … GTCTTGATTCGCTTGACGCTGCTG
Strand | log fluorescence [z-score]
GACGGACTGGGGACAGGGGACGTGCTA | -0.524
TCATATATATGTGTATAACTGTGCTAG | 0.612
GACGGTATCGACTATCGGGACGTGCTA | 3.71
TTAGGACTGGGGTTTCGGTTTGTGCTA | 6.19
TTAGCTATCGGGTTTCGGTTAGTGCTA | 9.16
TTAGGTATCCTTCTCCTTAAGTGCTAG | 0.428
TTGTTTTTCATTATTGTCTCGTGCTAG | 2.34
GACGATCTCAGTCTCGAGCCGTGCTAG | -0.29
TTAGGTTTCTGTTTCGGTTAGTGCTAG | 9.85
TTAAGTATCGGTATCGGTTAGTGCTAG | 10.5
TAGGGACTCGGGTCTCCCTTGGTGCTA | -1.01
GACGGTCTCCTTTTCCTGACGTGCTAG | -0.0576
TTAGGTTTCCTTACCCTTTAGTGCTAG | 0.763
GACGGACTGGGTTTCGGAACGTGCTAG | 2.7

Set 5
Target: Histone acetyltransferase KAT6A, winged helix 1, GST fusion (KAT6A, Homo sapiens, UniProt Q92794, residues 1-85)
Method: protein binding microarray
Form: double-stranded DNA, one strand shown
Sample: in vitro
Tested at: not given
Setting: 8-mer, flanks averaged, mean of 2 arrays, mostly near background
Relative to: not given
Direction: higher = stronger binding
Target sequence (chain): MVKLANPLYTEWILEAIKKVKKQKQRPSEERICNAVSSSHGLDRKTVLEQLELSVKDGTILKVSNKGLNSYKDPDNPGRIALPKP
Strand | E-score
GAGTAAGA | -0.106
AGAAGCAC | -0.189
AATGTACG | -0.0224
AGTGAAAA | -0.0732
AAGCCGAC | 0.325
CTTTCATA | -0.0471
CAACGGAA | 0.0643
AGCTCCTC | -0.259
TAACTTAA | -0.113
GCTGTACA | 0.011
GTGCTCAA | -0.124
AAGGCGCC | 0.306
AAAATTCT | 0.0468
GGGGCGGA | 0.258
ATGTCCCG | 0.21
GTCCCATA | -0.0491
ACTCGACA | -0.01
GACAACCA | -0.128
CAATCTGC | -0.0389
CCACGTCA | -0.121
CAGTAAGA | -0.112
ACGCCGCT | 0.385
TAGTTCCA | -0.153
AAGCCATT | -0.0566

Some of these lines once more (set 1):
Substitution | normalised enrichment score
L4V | 3.83
R8W | 1.37
F9W | 0.944
K2S | 0.724
L4W | 1.89
P3M | 1.08
F9M | 0.724
E12L | 1.88
P1E | 0.73
